Results of several laboratories.
Each numbered part is a random draw from the data of one study; scales do not carry over between parts.

Study 1
Target: Histone acetyltransferase KAT6A, winged helix 1, GST fusion (KAT6A, Homo sapiens, UniProt Q92794, residues 1-85)
Technique: protein binding microarray
Molecule type: double-stranded DNA, one strand shown
Matrix: in vitro
Concentration: not given
Setting: 8-mer, flanks averaged, mean of 2 arrays, mostly near background
Reference: not given
Direction: higher = stronger binding
Quantity: E-score
Construct (chain): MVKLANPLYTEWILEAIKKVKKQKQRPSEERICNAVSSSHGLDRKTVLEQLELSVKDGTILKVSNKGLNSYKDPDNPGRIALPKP
ATGTCTCA: -0.203
CAATGGGC: -0.164
ATCATGAC: -0.291
GGTACACA: 0.149
GCCCTCCC: 0.0845

Study 2
Target: Prothrombin, mature alpha-thrombin (F2, Homo sapiens, UniProt P00734)
Technique: aptamer microarray, sandwich
Molecule type: DNA with 2'F-ANA
Matrix: in vitro
Concentration: 200 nM
Setting: whole 15-mer aptamer, many near background
Added: Cy3 exosite-II aptamer, 400 nM
Direction: higher = stronger binding
Quantity: mean fluorescence intensity
Sequence: GGTTGGTGTGGTTGG
2'F-ANA at 2 3 4 5 7 8 9 11 13 14 15: 51.7 a.u.
2'F-ANA at 1 3 6 8 9 10 11 12: 127 a.u.
2'F-ANA at 1 2 4 5 6 10 15: 119 a.u.
2'F-ANA at 1 2 5 6 10 11 13: 45.5 a.u.
2'F-ANA at 1 2 8 9 10 11 12: 86.5 a.u.
2'F-ANA at 2 4 5 6 11: 57.3 a.u.

Study 3
Target: Interferon regulatory factor 5, full length, phosphomimetic (IRF5, Homo sapiens, UniProt Q13568-2, residues 1-514, S451D/S453D/S456D/S462D)
Technique: protein-binding microarray
Molecule type: double-stranded DNA, one strand shown
Matrix: in vitro
Concentration: 940 nM top
Setting: 60-bp whole probe
Added: salmon DNA 0.4 mg/ml
Reference: random background probes
Direction: higher = stronger binding
Quantity: fitted relative affinity
GCCTAGCACTTAGAACTGGGGACTGGATAAGTGCTAGTCTTGATTCGCTTGACGCTGCTG: -0.0243 z-score
GCCTAGCACGACGGTTTCCTTTTCATGACGTGCTAGGTCTTGATTCGCTTGACGCTGCTG: 2.19 z-score
GCCTAGCACGACGGACTGGACTTTCGGGATGTGCTAGTCTTGATTCGCTTGACGCTGCTG: 0.239 z-score
GCCTAGCACTTAGATATCAGTCTCGATCAGTGCTAGGTCTTGATTCGCTTGACGCTGCTG: 2.42 z-score

Mixed results
PhoQ, residues 284 288 289 292 302 303 ASVMEA — fold induction (PhoP, residues 12 14 15 18 19 SMASL (Escherichia coli, UniProt P23836); Sort-seq, item: YFP reporter; E. coli; PhoQ-PhoP variant library, added: 10 µM Mg2+; reference: high Mg2+ state, higher = stronger signaling): 3.11

Repeated from above (study 3):
GCCTAGCACGACGGACTGGACTTTCGGGATGTGCTAGTCTTGATTCGCTTGACGCTGCTG: 0.239 z-score
